Published values collected from several papers.
Compare with care: the assays were run in different laboratories. “And” joins repeats or separate records; there may be more than shown. ± marks the error that the study gave.
PIK3CG: Phosphatidylinositol 4,5-bisphosphate 3-kinase catalytic subunit gamma isoform (PIK3CG, Homo sapiens, UniProt P48736)
Chain of UniProt Q9Y2J8 (whole entry, looked up): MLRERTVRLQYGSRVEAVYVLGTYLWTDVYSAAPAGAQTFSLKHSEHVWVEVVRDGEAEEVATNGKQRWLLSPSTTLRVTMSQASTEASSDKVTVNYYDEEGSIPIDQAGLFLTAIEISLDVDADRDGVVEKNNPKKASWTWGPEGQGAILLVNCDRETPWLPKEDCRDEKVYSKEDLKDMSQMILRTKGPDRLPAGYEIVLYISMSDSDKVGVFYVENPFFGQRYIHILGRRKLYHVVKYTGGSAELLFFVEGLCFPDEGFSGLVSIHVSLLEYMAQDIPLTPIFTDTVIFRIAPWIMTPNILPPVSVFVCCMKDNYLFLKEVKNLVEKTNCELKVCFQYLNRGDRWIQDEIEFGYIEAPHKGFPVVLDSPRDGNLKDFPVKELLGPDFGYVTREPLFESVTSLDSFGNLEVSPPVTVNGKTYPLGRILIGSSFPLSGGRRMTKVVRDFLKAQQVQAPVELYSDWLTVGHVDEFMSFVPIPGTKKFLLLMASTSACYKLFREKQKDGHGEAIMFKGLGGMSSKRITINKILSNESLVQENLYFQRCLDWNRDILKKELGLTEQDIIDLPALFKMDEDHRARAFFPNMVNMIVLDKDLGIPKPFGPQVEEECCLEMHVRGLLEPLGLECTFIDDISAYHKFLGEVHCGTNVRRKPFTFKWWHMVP
Chain of UniProt D0VWV4 (whole entry, looked up): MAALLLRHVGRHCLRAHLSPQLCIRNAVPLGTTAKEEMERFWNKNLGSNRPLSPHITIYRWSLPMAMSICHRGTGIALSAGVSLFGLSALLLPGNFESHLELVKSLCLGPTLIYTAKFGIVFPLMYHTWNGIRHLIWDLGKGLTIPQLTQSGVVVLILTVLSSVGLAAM
Chain of UniProt P48736 (whole entry, looked up): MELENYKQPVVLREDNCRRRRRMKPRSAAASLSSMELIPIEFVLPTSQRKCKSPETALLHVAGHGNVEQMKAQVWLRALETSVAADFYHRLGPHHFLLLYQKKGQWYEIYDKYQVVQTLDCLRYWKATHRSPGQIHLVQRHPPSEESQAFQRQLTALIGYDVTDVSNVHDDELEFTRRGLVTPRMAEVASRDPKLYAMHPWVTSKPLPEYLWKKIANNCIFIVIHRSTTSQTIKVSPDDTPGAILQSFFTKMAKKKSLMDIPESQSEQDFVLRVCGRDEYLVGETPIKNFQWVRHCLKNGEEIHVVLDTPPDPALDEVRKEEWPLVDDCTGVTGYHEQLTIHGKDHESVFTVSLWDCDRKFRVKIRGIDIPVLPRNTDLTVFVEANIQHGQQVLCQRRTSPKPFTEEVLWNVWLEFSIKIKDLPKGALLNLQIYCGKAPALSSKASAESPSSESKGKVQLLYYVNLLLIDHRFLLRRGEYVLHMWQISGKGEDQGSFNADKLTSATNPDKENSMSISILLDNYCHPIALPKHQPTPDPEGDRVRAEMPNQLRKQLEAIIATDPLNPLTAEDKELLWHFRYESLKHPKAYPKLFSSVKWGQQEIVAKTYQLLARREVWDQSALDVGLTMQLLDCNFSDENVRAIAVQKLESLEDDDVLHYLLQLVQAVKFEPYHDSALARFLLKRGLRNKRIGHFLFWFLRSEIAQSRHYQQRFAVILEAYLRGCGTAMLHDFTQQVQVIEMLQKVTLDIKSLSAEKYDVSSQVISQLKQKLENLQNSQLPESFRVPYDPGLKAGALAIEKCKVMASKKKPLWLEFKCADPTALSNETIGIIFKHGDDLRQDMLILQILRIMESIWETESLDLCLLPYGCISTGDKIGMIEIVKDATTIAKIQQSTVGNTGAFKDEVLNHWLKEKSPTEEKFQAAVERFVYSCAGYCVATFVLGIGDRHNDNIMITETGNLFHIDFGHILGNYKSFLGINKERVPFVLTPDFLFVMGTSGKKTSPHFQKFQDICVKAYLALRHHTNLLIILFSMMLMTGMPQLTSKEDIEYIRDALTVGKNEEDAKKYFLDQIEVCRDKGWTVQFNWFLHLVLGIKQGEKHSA
Chain of UniProt A5GZW8 (whole entry, looked up): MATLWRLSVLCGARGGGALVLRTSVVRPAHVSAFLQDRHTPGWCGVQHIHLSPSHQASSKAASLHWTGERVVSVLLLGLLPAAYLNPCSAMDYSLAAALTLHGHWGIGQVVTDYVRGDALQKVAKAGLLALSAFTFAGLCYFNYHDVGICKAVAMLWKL
Chain of UniProt Q007T0 (whole entry, looked up): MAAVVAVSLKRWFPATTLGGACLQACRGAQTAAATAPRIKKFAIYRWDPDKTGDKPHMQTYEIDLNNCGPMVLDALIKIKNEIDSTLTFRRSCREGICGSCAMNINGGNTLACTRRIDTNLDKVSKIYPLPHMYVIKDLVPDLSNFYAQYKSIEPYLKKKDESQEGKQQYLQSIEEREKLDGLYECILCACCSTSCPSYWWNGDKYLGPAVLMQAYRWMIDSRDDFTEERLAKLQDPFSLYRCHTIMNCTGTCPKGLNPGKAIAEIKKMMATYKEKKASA
Chain of UniProt Q99LR1 (whole entry, looked up): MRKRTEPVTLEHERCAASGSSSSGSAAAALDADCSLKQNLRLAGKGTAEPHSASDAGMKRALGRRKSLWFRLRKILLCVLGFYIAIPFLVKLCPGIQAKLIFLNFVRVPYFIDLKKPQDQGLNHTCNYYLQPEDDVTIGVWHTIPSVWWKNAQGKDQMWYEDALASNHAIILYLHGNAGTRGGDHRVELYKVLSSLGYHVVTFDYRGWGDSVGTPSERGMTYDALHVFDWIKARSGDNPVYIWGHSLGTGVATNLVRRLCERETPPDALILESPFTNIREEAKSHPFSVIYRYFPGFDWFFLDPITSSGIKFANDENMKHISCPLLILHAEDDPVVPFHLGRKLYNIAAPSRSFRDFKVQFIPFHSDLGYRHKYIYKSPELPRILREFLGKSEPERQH
Chain of UniProt Q99720 (whole entry, looked up): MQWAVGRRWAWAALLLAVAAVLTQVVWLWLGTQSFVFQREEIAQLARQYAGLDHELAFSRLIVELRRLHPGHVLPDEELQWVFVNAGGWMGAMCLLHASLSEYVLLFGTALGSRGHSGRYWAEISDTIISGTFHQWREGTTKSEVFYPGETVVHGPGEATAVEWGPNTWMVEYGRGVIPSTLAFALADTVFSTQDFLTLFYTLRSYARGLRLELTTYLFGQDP
Chain of UniProt Q13555 (whole entry, looked up): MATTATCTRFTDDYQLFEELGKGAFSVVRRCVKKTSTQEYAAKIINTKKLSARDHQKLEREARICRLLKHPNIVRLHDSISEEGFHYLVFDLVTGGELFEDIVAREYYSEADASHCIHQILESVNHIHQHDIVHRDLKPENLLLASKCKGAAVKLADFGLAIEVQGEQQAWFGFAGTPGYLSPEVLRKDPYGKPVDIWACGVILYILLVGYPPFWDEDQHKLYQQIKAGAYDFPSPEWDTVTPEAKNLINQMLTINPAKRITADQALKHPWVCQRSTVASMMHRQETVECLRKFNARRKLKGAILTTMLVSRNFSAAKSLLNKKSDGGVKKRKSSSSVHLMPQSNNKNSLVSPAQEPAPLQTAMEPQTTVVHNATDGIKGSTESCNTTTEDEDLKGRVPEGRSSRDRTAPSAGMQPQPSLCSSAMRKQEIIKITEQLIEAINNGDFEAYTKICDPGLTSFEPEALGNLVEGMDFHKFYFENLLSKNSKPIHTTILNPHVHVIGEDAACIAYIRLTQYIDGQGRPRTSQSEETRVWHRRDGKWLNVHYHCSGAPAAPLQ
Chain of UniProt Q9Y572 (whole entry, looked up): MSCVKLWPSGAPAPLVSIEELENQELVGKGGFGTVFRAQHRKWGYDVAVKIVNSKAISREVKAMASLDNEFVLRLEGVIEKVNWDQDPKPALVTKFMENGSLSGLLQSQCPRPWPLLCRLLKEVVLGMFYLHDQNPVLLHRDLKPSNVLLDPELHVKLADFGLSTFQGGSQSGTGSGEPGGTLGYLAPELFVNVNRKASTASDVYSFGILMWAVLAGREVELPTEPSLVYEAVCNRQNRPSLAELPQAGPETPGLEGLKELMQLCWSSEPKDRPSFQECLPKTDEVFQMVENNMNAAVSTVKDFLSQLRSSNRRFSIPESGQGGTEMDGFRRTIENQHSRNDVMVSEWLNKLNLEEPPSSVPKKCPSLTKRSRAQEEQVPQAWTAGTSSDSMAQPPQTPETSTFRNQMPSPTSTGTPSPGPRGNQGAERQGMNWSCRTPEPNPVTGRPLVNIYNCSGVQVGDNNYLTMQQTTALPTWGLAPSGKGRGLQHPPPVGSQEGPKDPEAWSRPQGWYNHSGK
Chain of UniProt Q13526 (whole entry, looked up): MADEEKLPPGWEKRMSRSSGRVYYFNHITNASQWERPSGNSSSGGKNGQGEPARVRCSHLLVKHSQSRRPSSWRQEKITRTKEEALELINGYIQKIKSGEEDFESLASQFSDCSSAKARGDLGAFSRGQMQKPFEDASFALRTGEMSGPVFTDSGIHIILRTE

The remaining binding of `CCOC(=O)[C@@H]1Cc2c(cc([N+](=O)[O-])cc2[N+](=O)[O-])[C@H](O)[C@]12C(=O)Nc1ccc(Br)cc12` is reported as 58% (PIK3CG; binding, competition with immobilised ligand; 0.1 µM).
The selectivity ratio of `OC1Cc2ccccc2CC1N1CCC2(C=Cc3ccc(Br)cc32)CC1` (racemic) is reported as 100 (Sigma non-opioid intracellular receptor 1 (SIGMAR1, Homo sapiens, UniProt Q99720); rat liver (sigma2), human sigma1; reference: Ki sigma2 over Ki sigma1).
For `O=C1NC(=O)c2c1c1cc(F)c[n+]3c1c1c2c2cc(O)ccc2[n]1[Ru-4]312([N]=C=S)[S+]3CC[S+]1CC[S+]2CC3` (centres unmarked), the remaining activity was 5% (Calcium/calmodulin-dependent protein kinase type II subunit gamma (CAMK2G, Homo sapiens, UniProt Q13555); enzyme activity; 100 nM, human enzyme, added: 10 µM ATP; reference: untreated).
`C[C@@H]1NC(=O)[C@H](CCCNC(=N)N)NC(=O)[C@H](Cc2ccc3ccccc3c2)NC(=O)[C@H]2CCCCN2C(=O)[C@@H]([C@H](C)O)NC(=O)[C@H](Cc2ccc(F)cc2)NC(=O)[C@@H](Cc2ccccc2)NC(=O)c2cc3cc(c2)C(=O)NC[C@H](NC(=O)[C@@H](Cc2ccccc2)NC1=O)C(=O)N[C@@H](Cc1ccccc1)C(=O)N[C@@H](Cc1ccc2ccccc2c1)C(=O)N[C@@H](CCCNC(=N)N)C(=O)N[C@@H](CCCNC(=N)N)C(=O)N[C@@H](CCCNC(=N)N)C(=O)N[C@@H](CCCNC(=N)N)C(=O)N[C@H](C(=O)N[C@@H](CCCCNC(=S)Nc1ccc2c(c1)C(=O)OC21c2ccc(O)cc2Oc2cc(O)ccc21)C(N)=O)CNC3=O` — result for “binding affinity improvement”: ~2 fold (Peptidyl-prolyl cis-trans isomerase NIMA-interacting 1 (PIN1, Homo sapiens, UniProt Q13526); fluorescence anisotropy; concentration not given; reference: parent peptide).
`CS(C)(=O)=Nc1ccc(-c2ccc(-c3nc4cc(O[C@@H]5CO[C@H]6[C@@H]5OC[C@H]6O)[nH]c4cc3F)cc2)cc1` gave an inhibition of 5% (PIK3CG; enzyme activity, inhibitor; 10 µM).
For `C[C@@H](CNCc1cc(Cl)cc(Cl)c1)CNc1nc2nc(F)ccc2[nH]1`, the selectivity ratio was > 2 (Methionine--tRNA ligase, mitochondrial (MARS2, Homo sapiens, UniProt Q96GW9); enzyme activity; reference: human IC50 over T. brucei IC50).
`CON(C(=O)c1cn(C)nc1C(F)F)C(C)Cc1c(Cl)cc(Cl)cc1Cl` (centres unmarked) has a reaction velocity of 0.00357 µM/s and 0.00263 µM/s (SDHD/SDHC/SDHB (Sus scrofa, UniProt A5GZW8+D0VWV4+Q007T0); enzyme activity, inhibitor, DCIP reduction; pig; 1 µM, added: DCIP 40 µM).
The Emax of `C[C@@H](Cc1ccsc1)NC(=O)NC[C@H](Cc1ccc(O)cc1)N(C)C` is reported as 89 ± 5% (Mu-type opioid receptor, with GoB (OPRM1, Homo sapiens, UniProt P35372); receptor activation, agonist).
`N[C@H](C(=O)N1CCCC1)C1CCN(c2nccc3c(-c4ncc(Cl)cc4Cl)cccc23)CC1` gave a kcat of 1.37 s⁻¹ and 1.41 s⁻¹ (Protein-arginine deiminase type-2 (PADI2, Homo sapiens, UniProt Q9Y2J8); enzyme activity; 0.6144 µM, high-affinity site, added: Ca2+ 1.5 mM).
`CN(C)CCCSC(=S)N1CCN(C(=O)/C=C/c2coc3ccccc3c2=O)CC1` gave an MST response of 0.899 a.u. (Nucleoprotein (N, Tomato spotted wilt virus, UniProt P25999, R94A/Y184A); binding, microscale thermophoresis; 3.906 µM; dose series).
`CCNC(=S)NN=Cc1c2ccccc2cc2ccccc12.Cc1ccc(C(C)C)cc1.[Cl-].[Cl-].[Ru+2]` gave a ΔG° of -6.6 kcal/mol (Albumin (ALB, Homo sapiens, UniProt P02768); binding, fluorescence titration; human serum albumin; 296 K).
`CC(C)[C@H]1NC(=O)C[C@H]2/C=C/CCSSC[C@@H](NC1=O)C(=O)N[C@H](Cc1cccc3ccccc13)C(=O)NCC(=O)O2` has an inhibition of 1.9% (Serine/threonine-protein kinase PAK 5 (PAK5, Homo sapiens, UniProt Q9P286); enzyme activity, inhibitor; 10 µM).
The activity ratio of `CC(C)CC(O)(CC(C)C)c1cn(C(=O)N2CCCC2)nn1` is reported as 1.32 (Lysophosphatidylserine lipase ABHD12 (Abhd12, Mus musculus, UniProt Q99LR1); enzyme activity, inhibitor, competitive ABPP-SILAC; mouse T-cells; concentration not given, 4 h, treated in situ; reference: DMSO).
`CN(C)[C@H]1C[C@@]23CC[C@@]4(O2)C(=CC[C@]2(C)[C@@H](c5ccc6ccncc6c5)CC[C@H]24)C=C3[C@@H](O)[C@@H]1O` gave an inhibition of 5.3% (Receptor-interacting serine/threonine-protein kinase 3 (RIPK3, Homo sapiens, UniProt Q9Y572); ATP probe labelling, inhibitor, KiNativ profiling; 1 µM).

Excerpt of the above:
`CCNC(=S)NN=Cc1c2ccccc2cc2ccccc12.Cc1ccc(C(C)C)cc1.[Cl-].[Cl-].[Ru+2]` gave a ΔG° of -6.6 kcal/mol (Albumin (ALB, Homo sapiens, UniProt P02768); binding, fluorescence titration; human serum albumin; 296 K).
`CON(C(=O)c1cn(C)nc1C(F)F)C(C)Cc1c(Cl)cc(Cl)cc1Cl` (centres unmarked) has a reaction velocity of 0.00357 µM/s and 0.00263 µM/s (SDHD/SDHC/SDHB (Sus scrofa, UniProt A5GZW8+D0VWV4+Q007T0); enzyme activity, inhibitor, DCIP reduction; pig; 1 µM, added: DCIP 40 µM).
